Values quoted from earlier work as cited in several papers.
Compare with care: the assays were run in different laboratories. Several values in a cell are separate wells, animals, samples, runs or records. Numbers after ± are the reported error. ≈ marks a conversion by molar mass, not a printed value.

Structure (SMILES)	tested on	test	test system	conditions	scale	endpoint	value
CC(C)c1nc(CN(C)C(=O)N[C@H](C(=O)N[C@@H](Cc2ccccc2)C[C@H](O)[C@H](Cc2ccccc2)NC(=O)OCc2cncs2)C(C)C)cs1	–	–	human	–	–	blood-to-plasma ratio	0.14
CN1CC[C@]2(C)c3cc(OC(=O)Nc4ccccc4)ccc3N(C)[C@H]12	–	–	human	single dose, nausea and vomiting	–	dose-limiting dose	160 mg
O=C(O)c1cc(-c2ccc([C@H]3C[C@H]4C[C@@H]3CN4)cc2)c2ccc(-c3ccc(C(F)(F)F)cc3)cc2c1	–	–	–	pH 7.4	–	solubility	0.77 ± 0.21 µg/mL (≈ 1.58 µM)
O=C(O)C(F)(F)C(F)(F)C(F)(F)C(F)(F)C(F)(F)C(F)(F)C(F)(F)F	–	surface tension	–	literature value	–	pKa	2.2
O=C(O)C(F)(F)C(F)(F)C(F)(F)F	–	–	human	–	–	half-life	96 h
CC(C)C[C@H]1C(=O)N2CCC[C@H]2[C@]2(O)O[C@](NC(=O)[C@@H]3C=C4c5cccc6[nH]c(Br)c(c56)C[C@H]4N(C)C3)(C(C)C)C(=O)N12	–	–	dog	–	–	fraction unbound	0.002
O=C(O)C(F)(F)C(F)(F)C(F)(F)C(F)(F)C(F)(F)C(F)(F)F	–	–	plasma	–	–	plasma fraction unbound	0.0004
Cc1ccc2ccccc2c1	–	–	zebrafish embryos, whole embryo	76.65 ng/well, 48 hpf, single exposure	–	amount in tissue	0.161 ng/well and 0.116 ng/well and 0.154 ng/well
Clc1cc2c(cc1Cl)Oc1cc(Cl)c(Cl)cc1O2	–	–	female C57BL/6 mouse	every 28 days for 4 days	–	lowest dose with hepatic inflammation	0.01 mg/kg
Clc1ccc(C(c2ccc(Cl)cc2)C(Cl)Cl)cc1	–	–	–	–	–	logP	5.39
O=C(O)[C@@H](c1ccccc1)[C@@H]1CCCCN1	–	–	human, by CES1 genotype, plasma	oral, 10 mg methylphenidate, single dose, median	–	half-life	6.7 h
Cc1cccc2c1ccc1cc(C(C)C)ccc12	–	substrate	human liver microsomes	–	–	Km	2 nM
N#C[C@@]1(c2ccc3c(N)ncnn23)O[C@H](CO)[C@@H](O)[C@H]1O	–	–	human	intravenous infusion, 0.5 h infusion	–	Tmax	1.5 to 2 h
COC(=O)[C@@H]1C[C@H](OC(C)=O)C(=O)[C@H]2[C@@]1(C)CC[C@H]1C(=O)O[C@H](c3ccoc3)C[C@]21C	kappa opioid receptor Y313F	–	–	–	–	Ki	0.0633 µM and 0.037 µM
c1nc[nH]n1	–	–	–	–	–	pKa	10.3
CCCCCOc1ccc(-c2ccc(-c3ccc(C(=O)N[C@H]4C[C@@H](O)[C@@H](O)NC(=O)[C@@H]5[C@@H](O)[C@@H](C)CN5C(=O)[C@H]([C@@H](C)O)NC(=O)[C@H]([C@H](O)[C@@H](O)c5ccc(O)cc5)NC(=O)[C@@H]5C[C@@H](O)CN5C(=O)[C@H]([C@@H](C)O)NC4=O)cc3)cc2)cc1	–	–	end-stage renal disease	50 mg single dose	–	AUC(0-inf)	58000 ± 20200 ng·h/mL
Cc1ccc2cc(C)ccc2c1	–	–	zebrafish embryos, whole embryo	84.2 ng/well, 48 hpf, single exposure	–	amount in tissue	0.405 ng/well and 0.489 ng/well and 0.469 ng/well
N#CCNC(=O)c1ccc(-c2ccnc(Nc3ccc(N4CCOCC4=O)cc3)n2)cc1	–	–	severe renal impairment	dose not given	–	AUC(0-inf) increase	41%
N.N.O=C([O-])C1(C(=O)[O-])CCC1.[Pt+2]	–	–	plasma	literature data	–	free Cmax	9.78 µM
Nc1ncnc2c1ncn2C[C@@H](CO)OCP(=O)(O)O	–	–	mouse	oral	–	oral bioavailability	< 5%
O=C(NC(=O)c1c(F)cccc1F)Nc1cc(Cl)c(OC(F)(F)C(F)F)c(Cl)c1	CYP2D6	inhibitor	–	Tox21 screening	–	IC50	inactive
O=S(=O)([O-])C(F)(F)C(F)(F)C(F)(F)C(F)(F)C(F)(F)C(F)(F)C(F)(F)C(F)(F)F.[K+]	–	–	human	–	–	clearance half-life	≤ 6.2 years
CC[C@H]1OC(=O)[C@H](C)[C@@H](O[C@H]2C[C@@](C)(OC)[C@@H](O)[C@H](C)O2)[C@H](C)[C@@H](O[C@@H]2O[C@H](C)C[C@H](N(C)C)[C@H]2O)[C@](C)(OC)C[C@@H](C)C(=O)[C@H](C)[C@@H](O)[C@]1(C)O	–	–	human	added: ritonavir	relative to: with over without ritonavir	Cmax ratio	1.54
NC1CCCCC1N.O=C([O-])C(=O)[O-].[Pt+2] (stereo not shown)	–	item: total platinum	mouse, plasma	intravenous, 8.34 mg Pt/kg	–	C0	50.1 µg Pt/mL
CC(=O)C[C@@H](c1ccccc1)c1c(O)c2ccccc2oc1=O	–	–	human, CYP2C9 *1/*1, fasted	5 mg, added: warfarin 10 mg single dose	–	Cmax, mean	549 ng/mL
Cc1ccc(C(=O)c2cc(O)c(O)c([N+](=O)[O-])c2)cc1	–	–	human	–	–	fraction unbound	0.003

Structure (SMILES)	tested on	test	test system	conditions	scale	endpoint	value
NC(=O)c1nc(F)c[nH]c1=O	–	–	hamster	intraperitoneal, 25 mg	–	lung concentration	216 µg/g
O=S(=O)(c1ccc(O)cc1)c1ccc(O)cc1	–	–	human volunteers	oral, 0.1 mg/kg deuterated compound	–	Tmax	0.7 h
CNCCCN1c2ccccc2CCc2ccccc21	–	–	dog	–	–	fraction unbound	0.017
O=S(=O)(O)C(F)(F)C(F)(F)C(F)(F)C(F)(F)F	–	literature value	–	vapour phase	–	pKa	< 0.3
[Ru+2].c1ccc(-c2ccccn2)nc1.c1ccc(-c2ccccn2)nc1.c1ccc(-c2ccccn2)nc1	–	–	aerated acetonitrile	–	–	singlet oxygen quantum yield	0.56
c1ccc2c(c1)ccc1c3ccccc3ccc21	–	–	fish	dose not given, experimental mean	–	bioconcentration factor	2080 L/kg
CCCCN1CCCCC1C(=O)Nc1c(C)cccc1C (stereo not shown)	–	–	dog	–	–	fraction unbound	0.211
CC1(C)CCC(CN2CCN(c3ccc(C(=O)NS(=O)(=O)c4ccc(NCC5CCOCC5)c([N+](=O)[O-])c4)c(Oc4cnc5[nH]ccc5c4)c3)CC2)=C(c2ccc(Cl)cc2)C1	–	–	human	400 mg once daily	–	Cmax at steady state	2240 ng/mL
ClC1=C(Cl)[C@]2(Cl)[C@@H]3[C@@H]4C[C@@H]([C@H]5O[C@@H]45)[C@@H]3[C@@]1(Cl)C2(Cl)Cl	–	–	–	25 °C	–	water solubility	0.11 µg/mL (≈ 0.289 µM)
CN(C)C(=O)c1cc2cnc(Nc3ccc(N4CCNCC4)cn3)nc2n1C1CCCC1	–	item: midazolam	human	400 mg once daily, 8 days	relative to: midazolam alone	increase in Cmax	2.1 fold
OCCOCCN1CCN(C(c2ccccc2)c2ccc(Cl)cc2)CC1 (stereo not shown)	–	–	mouse	–	–	fraction unbound	0.0081
CN(C(=O)n1cnc(-c2ccc[n+]([O-])c2)c1)C1CCCCC1	–	–	monkeys	13 weeks repeated daily dosing	–	NOAEL	75 mg/kg/day
CCOc1ccccc1OCCN[C@H](C)Cc1ccc(OC)c(S(N)(=O)=O)c1	–	–	human, plasma	concentration not given, median of reported values	–	Cmax	0.034 µM
CN(C)CCCC1(c2ccc(F)cc2)OCc2cc(C#N)ccc21 (stereo not shown)	–	–	dog	–	–	fraction unbound	0.057
COC(=O)[C@H]1[C@@H](c2ccc(C)cc2)C[C@@H]2CC[C@H]1N2C/C=C/C[18F]	–	PET	rat, striatum	dose not given, 24 min	–	tissue uptake	1.94 %ID/g and 2.48 %ID/g and 1.92 %ID/g and 2.92 %ID/g and 2.3 %ID/g
COC(=O)C1=C(C)NC(C)=C(C(=O)OCCN(C)Cc2ccccc2)C1c1cccc([N+](=O)[O-])c1 (stereo not shown)	–	–	mouse	–	–	fraction unbound	0.004
O=S(=O)(O)C(F)(F)C(F)(F)C(F)(F)C(F)(F)C(F)(F)C(F)(F)F	–	–	plasma	–	–	plasma fraction unbound	0.0009
c1cc2ccc3cccc4ccc(c1)c2c34	–	–	zebrafish embryos, whole embryo	505.6 ng/well, 48 hpf, single exposure	–	amount in tissue	108 ng/well and 106 ng/well and 105 ng/well
CC(=O)c1c(C)c2cnc(Nc3ccc(N4CCNCC4)cn3)nc2n(C2CCCC2)c1=O	–	–	female rat	–	–	maximum tolerated dose	200 mg/kg
c1cc2c3c(cccc3c1)CC2	–	–	zebrafish embryos, whole embryo	83.12 ng/well, 48 hpf, single exposure	–	amount in tissue	0.456 ng/well and 0.482 ng/well and 0.5 ng/well
COC(=O)[C@@H](N)Cc1ccc(OP2(=O)CO[C@@H](Cn3cnc4c(N)ncnc43)CO2)cc1 (stereo partly shown)	–	–	PBS	pH 6.5, Sp isomer	–	half-life	0.917 h
NC1CCN(c2c(F)cc3c(=O)c(C(=O)O)cn(C4CC4)c3c2Cl)C1 (stereo not shown)	–	–	dog	–	–	fraction unbound	0.398
Cc1sc2c(c1C)C(c1ccc(Cl)cc1)=N[C@@H](CC(=O)OC(C)(C)C)c1nnc(C)n1-2	–	–	mouse	intravenous, 5 mg/kg	–	AUC(0-inf)	2130 ng·h/mL
O=S(=O)([O-])C(F)(F)C(F)(F)C(F)(F)C(F)(F)C(F)(F)C(F)(F)C(F)(F)C(F)(F)F.[Li+]	CYP3A4	inhibitor	–	Tox21 screening	–	IC50	inactive
CCCSc1ccc2nc(NC(=O)OC)[nH]c2c1	–	–	–	pH 4.1	–	solubility	~2 µg/mL (≈ 7.54 µM)
CC[C@H](C)C[C@H](C)CCCCCCCCC(=O)N[C@H]1C[C@@H](O)[C@@H](NCCN)NC(=O)[C@@H]2[C@@H](O)CCN2C(=O)[C@H]([C@H](O)CCN)NC(=O)[C@H]([C@H](O)[C@@H](O)c2ccc(O)cc2)NC(=O)[C@@H]2C[C@@H](O)CN2C(=O)[C@H]([C@@H](C)O)NC1=O	–	–	human	added: radiolabelled compound	–	fraction excreted in faeces	35%

Excerpt of the above:
Structure (SMILES)	tested on	test	test system	conditions	scale	endpoint	value
CC(C)C[C@H]1C(=O)N2CCC[C@H]2[C@]2(O)O[C@](NC(=O)[C@@H]3C=C4c5cccc6[nH]c(Br)c(c56)C[C@H]4N(C)C3)(C(C)C)C(=O)N12	–	–	dog	–	–	fraction unbound	0.002
Clc1ccc(C(c2ccc(Cl)cc2)C(Cl)Cl)cc1	–	–	–	–	–	logP	5.39
O=C(O)C(F)(F)C(F)(F)C(F)(F)C(F)(F)C(F)(F)C(F)(F)C(F)(F)F	–	surface tension	–	literature value	–	pKa	2.2
Cc1ccc2cc(C)ccc2c1	–	–	zebrafish embryos, whole embryo	84.2 ng/well, 48 hpf, single exposure	–	amount in tissue	0.405 ng/well and 0.489 ng/well and 0.469 ng/well
Nc1ncnc2c1ncn2C[C@@H](CO)OCP(=O)(O)O	–	–	mouse	oral	–	oral bioavailability	< 5%
N.N.O=C([O-])C1(C(=O)[O-])CCC1.[Pt+2]	–	–	plasma	literature data	–	free Cmax	9.78 µM
CC(=O)c1c(C)c2cnc(Nc3ccc(N4CCNCC4)cn3)nc2n(C2CCCC2)c1=O	–	–	female rat	–	–	maximum tolerated dose	200 mg/kg
